# Results gathered from unrelated publications.
# Parts stem from different laboratories: compare values within a part only. Substitutions count along the parent as printed.

# Sample 1
# Target: Prothrombin, mature alpha-thrombin (F2, Homo sapiens, UniProt P00734)
# Method: aptamer microarray, sandwich
# Form: DNA with 2'F-ANA
# Matrix: in vitro
# Tested at: 200 nM
# Setting: whole 15-mer aptamer, many near background
# With: Cy3 exosite-II aptamer, 400 nM
# Direction: higher = stronger binding
# Strand: GGTTGGTGTGGTTGG
Modification,mean fluorescence intensity [a.u.]
2'F-ANA at 1 2 3 5 7 8 9 10,47
2'F-ANA at 1 2 4 5 6 9 13 14,64.5
2'F-ANA at 1 2 5 8 10 11 12 15,53.1
2'F-ANA at 1 5 6 9 13 14 15,50.8
2'F-ANA at 3 4 5 7 12 13 14 15,55.4
2'F-ANA at 1 7 9 10 14 15,47.9
2'F-ANA at 3 4 5 6 11 12 13 14 15,47.8
2'F-ANA at 1 6 8 10 11,53.3
2'F-ANA at 2 3 5 6 10 12 13,54.7
2'F-ANA at 2 3 4 7 8 14 15,462
2'F-ANA at 1 3 4 6 11 12 13 14 15,71.3
2'F-ANA at 1 3 6 7 8 9 11 12 13 14,118
2'F-ANA at 1 5 6 7 11 12 15,85.9
2'F-ANA at 2 3 4 5 8 9 10 11 12 14,49.7
2'F-ANA at 4 13 14 15,168
2'F-ANA at 1 2 3 4 5 7 9 12,139
2'F-ANA at 1 5 6 7 15,64.1
2'F-ANA at 1 3 4 5 6 7 9 11 12,118
2'F-ANA at 1 4 5 6 8 9 11 12 13 14,56.2
2'F-ANA at 2 3 5 6 7 9 10 12 14 15,47.4
2'F-ANA at 2 3 5 7 9 13 14,65.7
2'F-ANA at 1 2 5 7 8 10 11 12 13 14,103
2'F-ANA at 3 5 6 7 8 11 15,96.6
2'F-ANA at 1 2 3 9,210
2'F-ANA at 1 4 5 6 7 8 9 13 14,56.1

# Sample 2
# Target: RNA binding protein fox-1 homolog 2, RRM domain, GST-SBP tag (RBFOX2, Homo sapiens, UniProt O43251-10, residues 100-194)
# Method: RNA Bind-n-Seq
# Form: RNA
# Matrix: in vitro
# Tested at: 365 nM
# Setting: natural RNA segment, single round, ends assumed
# Relative to: no-protein control
# Direction: higher = stronger binding
# Constant ends, left off below: GGGAGUUCUACAGUCCGACGAUC … UGGAAUUCUCGGGUGCCAA
# Target sequence (chain): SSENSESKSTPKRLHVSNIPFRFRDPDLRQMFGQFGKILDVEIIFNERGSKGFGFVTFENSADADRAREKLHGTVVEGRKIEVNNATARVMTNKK
Strand,RBNS enrichment (R)
CUGUACAGAGGACCAUGGAGCCUUCCUGAAAGGUCUCGGCCAUCUGUUCUUCUCCACCUCCUCAUGGGAUAGGAACUGAAAGAGAACUCAAGGGUUGUCACUUUCCUAGA,0.27
CAUUCUUAAGUGUACUUGUUUAUAAGGAAUAACAUAAACUAAUCUGUACCUUUAUAUAUAUGUGUGUGUACAUAUAUACAUAUAUAAACUGUAUAGUGUACAUGGUAAUG,0.288
AGCUCUGGCCAGUCACCUUUAACCCAGCAGCUUGGGUUCAGUGUCACCUACGGAUUAUUUCUCUUUCUCGCCUGCCCUUAGGAUCUUAAGCUAAAGGGCACUGUUUAUUU,0.333
UUAGAGGGCUACUUCAGUGUCUCUACUGACAGAAACUCCUGUAUCUCAAAUGGAUCUCGAAGUUCUCUAGUAAGGAGUCCUAAGGAUGACAUGUAUUGGGCCACUAGCAG,0.777
AAAAAAGUCGAGAAACUUUGUAAAAUAUUGUGUGUGUGAUUCCUUGUAAAAUAUUUUCAAAUGGUUUAUUACAGAAGAUCAGUUAUUAAAUAAUGUUCAUAUUUUCACUU,1.29
UUUACUGAAAAAGCUAUUGGACUCUUGCUCUUUCUAGCUCUGAACUAAUAAAUGUCUUAUCACGCUGGCCAGAGAGUAGCUGUCUUUCAGCAAACACUGAGCACACUGUG,0.361
UAUUUAUUUAAAGUGGAAAUUCUAAGCCUUCCAGUAUAUACCCUUGUCAUGAGAAAAGAGGUACAUGGUGAUCCCCAAGAGAACUCAAGCCUUAUUCCUCACACACUACA,0.326
UUCCUCCAUGUGUGUCCUGUGAGGAUUUUGCUCAUGAGUCAUGCAGGCAGUGACAGUGAACUGUAAAUACCACAUGUGAGUUUACCUGGAUCUGUGCAUUUUGUGCCUUA,0.391
AAACACCAGACUCGCUCAGAGGUGAUGUCCAUCUUUGAGAAACAUGAAGCUUUGCUUUGUGGAUUGUAUGCCUGAUAUGAUGAAUAGUCAUGUGAUGAUACAUGGGAAGA,0.347
AUCUCAUUUCUCAAAAAAAAAAAAUGAUGCCUGUGUUUAUGUACAAUUUAAAUGAUUACAGAGUGCUCCUGCCCAAGGAUCUCAUAGCCUGGAGUGAGGGUCAGAACUGA,1.3
CCCCAGGGUCUCCUGUUAACCAGGCUGACUUCGAACUCACAACCUUUAAUUUCUAACCCUACCACAUCACAUCCAGUUUAUGAUUUUUCCAGAGGCUCAAAGCCAGAACC,0.561
AUUUUAAAAUUUAUAAACAAGUCACUUAAAUGCCAGUUGUCUGAAAAAUCUUAUAAGGUUUUACCCUUGAUACGGAAUUUACACAGGUAGGGAGUGUUUAGUGGACAAUA,0.566

# Sample 3
# Target: ABI1, truncated, D143A, DHFR fusion (Arabidopsis thaliana)
# Method: DHFR PCA, deep sequencing
# Matrix: yeast
# Setting: methotrexate growth selection, single substitutions
# With: (+)-ABA 0.39 µM
# Relative to: wild-type fitted maximum
# Direction: higher = stronger binding
# Starting sequence: PYL1, truncated, DHFR fusion (Arabidopsis thaliana); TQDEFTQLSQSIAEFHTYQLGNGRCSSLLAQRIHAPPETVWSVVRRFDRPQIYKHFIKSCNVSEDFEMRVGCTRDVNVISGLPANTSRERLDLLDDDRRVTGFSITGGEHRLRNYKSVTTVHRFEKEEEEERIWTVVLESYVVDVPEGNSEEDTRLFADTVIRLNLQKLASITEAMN
Change,relative binding score
H55P,104%
S63V,20.7%
I57M,-3.45%
H110F,21.4%
T73Q,29.9%
E129V,28.9%
D97G,17.9%
H55C,70%
R49K,58.9%
F66Y,18.2%
I172H,-0.204%
S63C,40.9%
D48Q,-11.4%
F47Q,-15.3%
K54Q,8.75%
R45W,1.13%
P37T,13.3%
H34N,59.7%
S171I,11.5%

# Sample 4
# Target: CCNB2, cyclin fold, Cln2 fusion (human)
# Method: yeast growth competition, sequencing
# Matrix: yeast
# Setting: weak parent motif
# Relative to: not given
# Direction: higher = stronger binding
# Starting sequence: LLGL2 docking peptide (human); KSLKKSLRQSFRR; partner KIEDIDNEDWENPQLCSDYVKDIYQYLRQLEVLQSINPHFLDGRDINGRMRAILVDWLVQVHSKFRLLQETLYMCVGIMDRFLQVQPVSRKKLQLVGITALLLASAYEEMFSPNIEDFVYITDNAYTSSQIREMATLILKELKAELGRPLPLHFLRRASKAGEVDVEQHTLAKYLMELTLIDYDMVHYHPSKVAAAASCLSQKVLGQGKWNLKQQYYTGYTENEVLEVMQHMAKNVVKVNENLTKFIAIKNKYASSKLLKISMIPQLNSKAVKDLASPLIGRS
Change,normalised enrichment score
R8A,0.507
K1A,0.331
S10A,0.367
F11A,0.496
R13A,0.792
S2A,0.914
L3A,1.05

# Sample 5
# Target: Sal-like protein 4, full length isoform A (SALL4, Homo sapiens, UniProt Q9UJQ4, residues 1-1053)
# UniProt Q9UJQ4, sequence (whole entry, looked up): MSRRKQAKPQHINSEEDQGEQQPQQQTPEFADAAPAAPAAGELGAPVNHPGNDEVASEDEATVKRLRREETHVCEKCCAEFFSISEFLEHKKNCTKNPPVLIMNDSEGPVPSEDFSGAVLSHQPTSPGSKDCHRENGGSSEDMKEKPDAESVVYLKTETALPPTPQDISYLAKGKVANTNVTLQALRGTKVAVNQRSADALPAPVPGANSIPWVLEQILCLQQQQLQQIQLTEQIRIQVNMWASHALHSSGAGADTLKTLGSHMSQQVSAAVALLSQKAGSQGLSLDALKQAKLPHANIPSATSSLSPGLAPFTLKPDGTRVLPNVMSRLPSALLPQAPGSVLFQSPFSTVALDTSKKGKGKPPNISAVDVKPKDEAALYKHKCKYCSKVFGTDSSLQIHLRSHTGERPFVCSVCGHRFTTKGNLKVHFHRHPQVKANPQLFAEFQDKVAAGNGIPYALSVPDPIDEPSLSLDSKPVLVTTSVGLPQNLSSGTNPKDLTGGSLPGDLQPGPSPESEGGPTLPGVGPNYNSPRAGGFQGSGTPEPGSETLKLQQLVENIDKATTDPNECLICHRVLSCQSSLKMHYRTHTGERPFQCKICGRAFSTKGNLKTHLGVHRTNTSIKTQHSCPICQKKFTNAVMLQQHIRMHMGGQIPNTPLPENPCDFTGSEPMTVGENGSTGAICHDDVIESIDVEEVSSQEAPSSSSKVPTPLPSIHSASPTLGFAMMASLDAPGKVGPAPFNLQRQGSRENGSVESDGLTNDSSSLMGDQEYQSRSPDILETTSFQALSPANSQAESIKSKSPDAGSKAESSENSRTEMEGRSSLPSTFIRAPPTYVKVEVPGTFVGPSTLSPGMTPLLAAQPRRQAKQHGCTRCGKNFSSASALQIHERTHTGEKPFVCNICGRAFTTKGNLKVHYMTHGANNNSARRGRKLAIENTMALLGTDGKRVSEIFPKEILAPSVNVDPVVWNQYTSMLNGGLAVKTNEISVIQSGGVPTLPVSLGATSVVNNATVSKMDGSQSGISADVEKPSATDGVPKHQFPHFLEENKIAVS
# Method: universal PBM
# Form: double-stranded DNA, one strand shown
# Matrix: in vitro
# Tested at: 600 nM
# Setting: 8-mer, flanks averaged, mean of replicates
# Direction: higher = stronger binding
Strand,E-score
GCATATCA,0.236
ATTATCTG,0.286
CGGTAACG,-0.14
CGGTCGTA,-0.172
CTGACACC,-0.0605
AGTTAGAA,0.0737
AGTGTCTG,-0.0215
GCTAGACA,0.0602
TAGCGCTA,0.0304
ACGAGCTA,-0.0231
GGGGTAAC,-0.172
ACGATATG,0.25
CTAGTGGC,-0.134
CGTGGTGA,-0.234
GAGCATGC,-0.151
GAGACGGA,-0.187
AATTTTGC,0.269
CAGTGAAA,0.0281
CCAATAGG,0.0124
AAGTCTAG,0.0737
TAAAGTCA,0.205
GGGGAAGA,-0.0918
CCTCATAA,0.262
ACCTAGTA,-0.0304
ATCCACCG,-0.209

# Sample 6
# Target: BATF3, bZIP domain (human)
# Method: DHFR protein complementation
# Matrix: yeast
# Setting: single substitutions, most at no-binding floor
# Relative to: wild-type JUN-FOS pair
# Direction: higher = stronger binding
# Starting sequence: JUN, bZIP domain (human); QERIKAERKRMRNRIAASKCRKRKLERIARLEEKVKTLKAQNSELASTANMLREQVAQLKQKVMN; partner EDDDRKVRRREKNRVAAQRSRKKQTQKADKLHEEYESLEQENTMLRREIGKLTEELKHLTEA
Change,binding fitness
K34Y,0.0704 natural log
V56P,-0.959 natural log
Q55G,-0.0265 natural log
L45M,0.211 natural log
S47P,-0.26 natural log
L52T,-0.629 natural log
E44N,0.139 natural log
T37C,0.248 natural log
N42D,-1 natural log
K39W,0.00632 natural log
Q55R,0.239 natural log
R30E,0.314 natural log
K34G,0.284 natural log
N42A,-0.164 natural log
A29I,0.196 natural log
T48A,0.166 natural log
L52I,0.0789 natural log
V35G,-0.247 natural log
E33G,0.149 natural log
L38T,0.089 natural log
Q55I,0.0174 natural log
S43A,0.244 natural log
L45F,0.0204 natural log
E33A,0.21 natural log
V35K,0.0339 natural log
